Results of several laboratories.
Every numbered part comes from another study and shows a few of its results, in no order.

Set 1 — technique: protein binding microarray; molecule type: double-stranded DNA, one strand shown; medium: in vitro; concentration: not given; relative to: not given; reading: higher = stronger binding; endpoint: E-score
Target: Histone acetyltransferase KAT6A, both winged helices, GST fusion (KAT6A, Homo sapiens, UniProt Q92794, residues 1-181)
Setting: 8-mer, flanks averaged, mean of 2 arrays, mostly near background
Construct (chain): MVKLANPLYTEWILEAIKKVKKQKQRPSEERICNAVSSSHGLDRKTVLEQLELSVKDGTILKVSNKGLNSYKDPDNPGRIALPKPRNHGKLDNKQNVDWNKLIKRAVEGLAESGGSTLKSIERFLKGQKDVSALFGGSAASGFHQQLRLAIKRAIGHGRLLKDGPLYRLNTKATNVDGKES
AAAATTTG: -0.0057
CGACTCTA: -0.0627
AAAGGTGG: -0.0789
CCCTATGC: -0.138
TACTTGGA: -0.0969
AACCGTGT: 0.0484
AGCCGCCC: 0.174
AGAAGCCG: 0.169
AGAAGTAT: -0.0766
ATCGATTG: -0.0829
TAGGGGCA: -0.271
TCACGGAA: 0.311
TAGAGGCA: -0.162
CCCAACGG: -0.00421
ACCTTTTG: -0.142
GCCATTAA: -0.119
CCATCGCC: 0.118
AAATCAAG: 0.0331
ACTACCAG: -0.138
CAGTGAGA: -0.253

Set 2 — technique: RNA Bind-n-Seq; molecule type: RNA; medium: in vitro; concentration: 365 nM; relative to: no-protein control; reading: higher = stronger binding; endpoint: RBNS enrichment (R)
Target: RNA binding protein fox-1 homolog 2, RRM domain, GST-SBP tag (RBFOX2, Homo sapiens, UniProt O43251-10, residues 100-194)
Setting: natural RNA segment, single round, ends assumed
Shared flanks, not repeated: GGGAGUUCUACAGUCCGACGAUC … UGGAAUUCUCGGGUGCCAA
Residues (chain): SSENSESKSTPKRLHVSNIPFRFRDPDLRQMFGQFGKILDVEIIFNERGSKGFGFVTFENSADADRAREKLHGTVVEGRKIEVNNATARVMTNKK
AGAACAAGCUUUUUUCACCAAGCUGGUCUCUGGCCAGGGUGCAGGAAAGUCCACUUCAGCCACCAGGAGCAAAGCUGAAAUGGCAUUUGUUUUUCACACCUGGGGUCAGG: 0.23
AUAGCACUGAAGUUGCAACUUUUUUCUUGUAAUUGUUUUGCUACUAAGAUAAUUUCAGAAGUUCAGUCUAUUUUUUCAGCGGAUACUGCCGCCACCAAGAAUCCAAAACC: 1.35
UGUUUUGGACUCCGUGUCUUCAGUGGUUUGUUAGUUACCAUUACGUAAACCUUGUCUGAGUAGUGUUCCGAGGUCUUGCCGUUCCGGAUCCCUCUGUCUGUUUAUGCCUG: 1.79
AUAUAGUGUGUGUACAUCUUUCGAUGAUAUAAAUUUAUUUGGGCGUGACUGUUUUAAAACACCAUAAUGAAUGUAUAAUUAAUUUAUGUUCAAGUAUUAAUAUUGUUACA: 0.79
AGCCACCCAUCCUAAGGAGGCAAGCACUUGGCCUCUUUGAGUGAGACUUGGCUUUAGGACUCUCUGCAUCAGCCUUGUGUGCAUCAGGCACUGGAAAGCCUCUGUCUUCC: 14.8
UGUCCAUCCUCGCUGUCCUUUCCCUGUUCUCCCCCUGCCCCCCGUCUCUAUCCUCUGUGGCCUUCAGCUAAUUUCUGCUCCCCUGAGAUUCGUCCUUCAGCCCCAUCAUG: 0.775
UUUUUCAUUUUAAUCUUUUUUGACUUUUUUUUAGUUAACCAUUUUUUAUGCAUAAGUGCUCAAAUGCAUUUCUCUUUCUUUCGAAACUAGUUAAUCGUUAAGUUGACAAU: 0.959
GGGAUGGGGGUGCCUUGCUCCAGCGGGCUGCAGAUCCCAGCACUGGCGUGACUGACGGCUGAGGCCUGCCUCUCCUUCCCAAGCCCCCUUCCUUCAUCCUUGGGGGUCUC: 0.762
AUUCCUAAGUUCCUAUCUCCUUCACACUGUACCUAGGGUGAUGGUUUCGGUCAGGCCAUCUCCAGCAGCAUGUCUCUGCUGUGUGGAUGGAGGCCAAGGUCAGAAAGAUG: 1.26
UUUAAUUUACAAACUGUUUUGGUAAAUCUCUUAAUGUAAGUAGCUAUUUGACUUUGGAAUUUUGCAUUCGAGGUAUACUGUCAUUUCUUGAAAUCUUUUUCUCGUUUAGU: 1.03
UCCAUAACUCCAAGUGAGUCUGUAAUGUUUGUGAAGCUUGACUGUAACCAUGUUUUUUCUGUUUAAUUAUGUAAAAAACAAAACUACAACAACAAAAAAAGAAAAAAGUU: 0.602
CCAUAAAGCUUUUGUUAUAUAUUAAAUGUAAACUGAAAGGAAUGUAAACAUAUGUAUUGUUAAUUAUAAAUAUCGAUAAGUAAUAGCAUAAUAGAUGAAGAGGUCUUAUU: 0.784

Set 3 — technique: RNA Bind-n-Seq; molecule type: RNA; medium: in vitro; concentration: 1 µM; setting: whole 134-nt RNA, ends assumed; added: 150 mM KCl; relative to: input library; reading: higher = stronger binding; endpoint: log2 enrichment
Target: Ras GTPase-activating protein-binding protein 1, C-terminal RGG region (G3BP1, Homo sapiens, UniProt Q13283)
Chain of UniProt Q13283 (whole entry, looked up): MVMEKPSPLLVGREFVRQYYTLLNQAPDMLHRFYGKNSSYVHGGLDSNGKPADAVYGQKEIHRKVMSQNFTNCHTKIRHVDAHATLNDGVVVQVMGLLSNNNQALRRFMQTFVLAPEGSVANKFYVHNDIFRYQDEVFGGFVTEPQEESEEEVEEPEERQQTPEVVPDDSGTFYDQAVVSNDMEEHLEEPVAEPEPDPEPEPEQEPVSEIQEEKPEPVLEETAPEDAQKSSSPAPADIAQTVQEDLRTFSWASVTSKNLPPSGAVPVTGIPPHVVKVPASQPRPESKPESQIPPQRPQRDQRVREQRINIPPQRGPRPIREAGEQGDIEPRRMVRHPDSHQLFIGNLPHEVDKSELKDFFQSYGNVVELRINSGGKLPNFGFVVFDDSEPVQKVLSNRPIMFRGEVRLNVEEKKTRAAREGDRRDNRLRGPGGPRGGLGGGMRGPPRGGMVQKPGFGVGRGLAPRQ
Shared flanks, not repeated: GGGAGUUCUACAGUCCGACGAUC … UGGAAUUCUCGGGUGUCAAGG
CAAGUCCUGUGCUACACAUCGUAUGUACCGAAUCGGGAAAGGGAGGGAAAAAGGGAAAGUAUUAUGUUACGCCGUUCGGAUCUGCACUUC: 1.81
UAACUUUAGAGGAGGAUCUGAUGGAUAUGGCAGUGGACGUGGAUUUGGGGAUGGCUAUAAUGGGUAUGGAGGAGGACCUGGAGGUGGCAC: -0.547
CACAGACAACACGCACCCACACAGACACAGAGGGAAGGGGUUGGGAUGGGGACAGGGUGCACAGAAAGGCGGGGUAGGACCCCAGCCCCU: -0.0127
CAAGUCCUGUGCUACACAUCGUAUGUACCGAAUCGGGUUUGGGUUUGGGUUUGGGAAAGUAUUAUGUUACGCCGUUCGGAUCUGCACUUC: 2.36
UCUAUCCUGUCCCUCCACCCCACCCUCCACCUCAAUCCCCUCCCAUCUUCCCCAGACCUACCUCACCUACUAGGACCUGAGGCAGCUCCU: 0.127
CACAGACAACACGCACCCACACAGACACAGAGGGAAGGGGGUGGGAUGGGGACAGGGUGCACAGCAGGGCGGGGUAGGACCCCAGCCCCU: 0.814
AAGUCCUGUGCUACACAUCGUAUGUACCGAAUCGGGGUUUUGGUUUUGGGGUUUUGGAAAGUAUUAUGUUACGCCGUUCGGAUCUGCACU: -1.34
UGUGCUACACAUCGUAUGUACCGAAUCGGGGCCCCCCCGGCCCCCCCGGGGCCCCCCCGGGGAAAGUAUUAUGUUACGCCGUUCGGAUCU: -2.33
AGUCCUGUGCUACACAUCGUAUGUACCGAAUCGGGAAAAAGGAAAAAGGAAAAAGGGAAAGUAUUAUGUUACGCCGUUCGGAUCUGCACU: -1.83
CUCAAGUCCUGUGCUACACAUCGUAUGUACCGAAUCGGGUUUGGUUUGGUUUGGAAAGUAUUAUGUUACGCCGUUCGGAUCUGCACUUCC: -1.09
UGGCCCUGCUGGCAUGCGGGGAGGAAGAGGUGGCCUCAUGGAUCGUGGUGGUCCCGGUGGAAUGUUCAGAGGUGGCCGUGGUGGAGACAG: 2.1
CUCCUGGAGUGGAUCCGGCGCACCAUCCCCUGGCUGGAGGACCGUGUGCCCCAAAAGACUAUCCAGGAGAUGCAGCAGAAGCUGGAGGAC: -2.43
UCCUCAAGUCCUGUGCUACACAUCGUAUGUACCGAAUCGGGGCGGCGGGCGGAAAGUAUUAUGUUACGCCGUUCGGAUCUGCACUUCCAG: -0.494
ACCAAACAGGUGGGCAUCUUUGGGAAGUGGGGCAAGGGGGGGAUAGGGAGGGGGGUAACACUUUGGGAACAGGUGGUCCCAGGUCGUUUC: -0.914

Set 4 — technique: competition protein-binding microarray; molecule type: double-stranded DNA, one strand shown; medium: in vitro; concentration: 2 µM; added: Cbf1 competitor, 0.05 µM; reading: higher = stronger binding; endpoint: fluorescence intensity; shared flanks, not repeated: … GTCTTGATTCGCTTGACGCTGCTG
Target: Phosphate system positive regulatory protein PHO4, full length, GST-tagged (PHO4, Saccharomyces cerevisiae, UniProt P07270, residues 1-312)
Setting: whole 60-bp probe, lowest competitor level
Residues (chain): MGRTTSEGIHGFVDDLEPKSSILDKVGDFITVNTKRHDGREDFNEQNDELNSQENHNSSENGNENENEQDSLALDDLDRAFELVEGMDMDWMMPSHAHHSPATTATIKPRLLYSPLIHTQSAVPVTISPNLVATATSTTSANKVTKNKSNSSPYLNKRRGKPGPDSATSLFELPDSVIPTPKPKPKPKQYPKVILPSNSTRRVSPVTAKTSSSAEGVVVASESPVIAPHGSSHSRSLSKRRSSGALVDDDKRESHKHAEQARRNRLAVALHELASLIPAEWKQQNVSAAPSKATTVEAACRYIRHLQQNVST
CTTTCCCGATCTTGGCATGTGGGTGTAGCACATTTG: 11600 a.u.
ATTTTTACGGTTACCCACGTACTGCCAGCCATTAGA: 7760 a.u.
AGTACCACCTCTTTGAACGTGACAAAAGGTAGTAAT: 11000 a.u.
CACCAGCCGCCATTGAACGTGCAAACAGGCACCTGT: 10300 a.u.
GTGTATCTTTTCTTTGCTAATTATACGCTGACATGA: 5150 a.u.
TTCTAAATCTGCAATAACGTGGCAAGTATTCTGATC: 9120 a.u.
CCGAAGCAAATGATGGCCGTGACGGCAGCACAATAG: 5710 a.u.
CTTCTGTAAATTTGTGTAGTGGGTGGACGCGCCCCG: 5360 a.u.
TTCCCAGTGAAATTTCACGTGATGGAATCTGATGAA: 9810 a.u.
AAAGTTCTTTTTCAACACGTGCTTTTAATCAGCATT: 16500 a.u.
AAAGCGGTAATTTGTCACTATACTTCACATATCTAT: 3600 a.u.
TTCTTTACCGTTTTGCACGTGCGATGCGAAAAGTAT: 17900 a.u.
AAATTACTAAGTTTTCACGTGACCTACCCCGTATGA: 11600 a.u.
GTTGCTTGCTAATTGCATGATCAAGTTGGGCCGACG: 4070 a.u.
CACAGTGTTCCGAGTCACGTGCTGTTTCAGTCCTCC: 16200 a.u.
GTCCGCTTACGTCTGTGCGTGCGGATTGTCCCACAA: 8760 a.u.
CAAACCACTTTGGTTACCGTGACGAACTGCGAATCT: 3200 a.u.
TGCATTTGCTTATTGAACGTGAAGTGGAATTGGGGC: 7180 a.u.
CCGCTTGTGCCTACCCACGTGGTGAGCAATCTTCTC: 21900 a.u.
ATATGGATTGATTTTCACATGTATCGTTTATGAGTA: 6830 a.u.

Set 5 — technique: universal PBM; molecule type: double-stranded DNA, one strand shown; medium: in vitro; concentration: 600 nM; reading: higher = stronger binding; endpoint: E-score
Target: Sal-like protein 4, full length isoform A (SALL4, Homo sapiens, UniProt Q9UJQ4, residues 1-1053)
Chain of UniProt Q9UJQ4 (whole entry, looked up): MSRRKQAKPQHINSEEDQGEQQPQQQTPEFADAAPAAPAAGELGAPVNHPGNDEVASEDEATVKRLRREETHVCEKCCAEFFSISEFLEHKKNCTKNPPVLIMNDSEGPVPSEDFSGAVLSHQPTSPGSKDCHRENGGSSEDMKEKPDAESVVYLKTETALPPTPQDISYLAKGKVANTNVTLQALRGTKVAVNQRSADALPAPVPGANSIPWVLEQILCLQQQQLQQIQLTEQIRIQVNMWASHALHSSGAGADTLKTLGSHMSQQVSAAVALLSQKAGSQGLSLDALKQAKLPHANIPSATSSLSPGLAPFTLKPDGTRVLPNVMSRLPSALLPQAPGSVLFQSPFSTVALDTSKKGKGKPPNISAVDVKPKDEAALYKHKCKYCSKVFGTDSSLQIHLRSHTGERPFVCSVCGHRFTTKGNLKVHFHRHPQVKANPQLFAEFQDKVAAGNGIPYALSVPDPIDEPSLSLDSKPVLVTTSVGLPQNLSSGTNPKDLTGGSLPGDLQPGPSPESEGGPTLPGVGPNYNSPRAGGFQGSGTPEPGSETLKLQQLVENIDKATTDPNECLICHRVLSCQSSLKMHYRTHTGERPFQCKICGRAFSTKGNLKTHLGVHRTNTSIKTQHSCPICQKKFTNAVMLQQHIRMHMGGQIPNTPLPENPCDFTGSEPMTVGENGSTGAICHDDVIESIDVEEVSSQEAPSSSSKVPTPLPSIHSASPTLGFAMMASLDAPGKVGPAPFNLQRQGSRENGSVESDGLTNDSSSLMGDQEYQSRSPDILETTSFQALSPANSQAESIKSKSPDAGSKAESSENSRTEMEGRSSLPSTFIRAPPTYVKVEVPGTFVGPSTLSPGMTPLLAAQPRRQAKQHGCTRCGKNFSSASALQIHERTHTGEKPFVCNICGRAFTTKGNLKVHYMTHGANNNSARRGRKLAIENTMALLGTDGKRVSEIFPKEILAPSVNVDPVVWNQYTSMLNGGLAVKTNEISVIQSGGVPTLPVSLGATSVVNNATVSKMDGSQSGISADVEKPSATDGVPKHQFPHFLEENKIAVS
Setting: 8-mer, flanks averaged, mean of replicates
ACCCGTCG: -0.333
CTTCTATA: 0.263
AATCGCAC: 0.127
GGTTTGTA: 0.0188
GACATTTA: 0.175
GCCCTGAA: -0.0905
CACCTCGG: -0.148
AATGCAGG: -0.0464
ATAGTCAA: 0.233
AGTACTCA: 0.124
CCTCTAAA: -0.00348
ACACAAGT: 0.0967
ATTGCGTG: -0.0169
CTTCTACA: 0.15
ACATCTCC: 0.0354
GGGGGTAA: -0.163
CTTGAAAA: 0.226
AACGAGCT: -0.0835
AAAAACCT: 0.167
AGAGTCAC: -0.101
ACGCAGTG: -0.264
AGGCAGCA: -0.00649
CGACCAGC: -0.233
CTTGATGC: -0.101
GATGTCCA: -0.00971

Repeated from above (set 4):
TTCCCAGTGAAATTTCACGTGATGGAATCTGATGAA: 9810 a.u.
TTCTAAATCTGCAATAACGTGGCAAGTATTCTGATC: 9120 a.u.
GTGTATCTTTTCTTTGCTAATTATACGCTGACATGA: 5150 a.u.
CTTTCCCGATCTTGGCATGTGGGTGTAGCACATTTG: 11600 a.u.
AAATTACTAAGTTTTCACGTGACCTACCCCGTATGA: 11600 a.u.
ATATGGATTGATTTTCACATGTATCGTTTATGAGTA: 6830 a.u.
GTTGCTTGCTAATTGCATGATCAAGTTGGGCCGACG: 4070 a.u.
